Experimental data collected from several papers.
Each line is one published result; not all experiments were run side by side. ± marks the error that the study gave.

Compound	test system	conditions	scale	fluorescence quantum yield
CCN(CC)c1ccc2c(c1)O[B-]1(c3ccccc3OC)OC(=O)C(c3ccccc3)=N[N+]1=C2 (stereo not shown)	toluene			0.58
CCCCN1C(=O)c2cccc3c(NCCCN4CCOCC4)ccc(c23)C1=O	ethylene glycol			0.15
O=c1cc(/C=C/c2ccc(N3CCOCC3)cc2)oc(/C=C/c2ccc(N3CCOCC3)cc2)c1	acetonitrile	10 µM, 298 K	baseline: 9,10-diphenylanthracene in toluene	0.005
CCCCN1C(=O)c2cccc3c(NCCCCCCCCN4CCOCC4)ccc(c23)C1=O	dichloromethane			0.92
O=c1cc(/C=C/c2ccc(N3CCCC3)cc2)oc(/C=C/c2ccc(N3CCCC3)cc2)c1	acetonitrile	10 µM, 298 K	baseline: 9,10-diphenylanthracene in toluene	0.011
CCCCN1C(=O)c2cccc3c(NCCCCCCCCCCN4CCOCC4)ccc(c23)C1=O	methanol			0.75
COc1ccc2c(c1)O[B-]1(c3ccccc3)OC(=O)C(c3ccccc3)=N[N+]1=C2C (stereo not shown)	toluene			0.04
COC(=O)c1ccccc1-c1c2ccc(=[N+](C)C)cc-2oc2c1ccc1cccc(O)c12	12.5 mM aqueous NaOH	pH 12.1, 10% DMSO		0.17%
CCN(CC)c1ccc2c(c1)O[B-]1(c3ccccc3)OC(=O)C(c3ccccc3)=N[N+]1=C2 (stereo not shown)	toluene			0.63
CN(C)c1ccc(/C=C/c2cc(=O)cc(/C=C/c3ccc(N(C)C)cc3)o2)cc1	acetonitrile/water 1:19 v/v	10 µM, 298 K, aggregate nanoparticle suspension		0.11
CCCCN1C(=O)c2cccc3c(NCCN4CCOCC4)ccc(c23)C1=O	acetonitrile			0.19
CN1CCN(c2ccc3[nH]c(-c4ccc5[nH]c(-c6ccc(OCCCCNC(=O)c7cccc8c7C(=O)OC87c8ccc(N(C)C)cc8[Si](C)(C)c8cc(N(C)C)ccc87)cc6)nc5c4)nc3c2)CC1	PBS	1 µM, 2 h, room temperature, added: 20 µM hairpin DNA		0.29 ± 0.11
CC1(C)C(=CC=C2CCCC(C=CC3=[N+](CCC[N+](C)(C)C)c4ccc(S(=O)(=O)O)cc4C3(C)C)=C2SCCOCCOCCC(=O)O)N(CCC[N+](C)(C)C)c2ccc(S(=O)(=O)O)cc21	PBS	pH 7.4		6.5%
C=Cc1cccc([B-]23OC(=O)C(c4ccccc4)=N[N+]2=Cc2ccc(N(CC)CC)cc2O3)c1 (stereo not shown)	toluene			0.68
O=c1cc(/C=C/c2ccc(N(c3ccccc3)c3ccccc3)cc2)oc(/C=C/c2ccc(N(c3ccccc3)c3ccccc3)cc2)c1	acetonitrile	10 µM, 298 K	baseline: 9,10-diphenylanthracene in toluene	0.018
CCC1=[N+]2N=C(/C=C/C=C/c3ccc(C(F)(F)F)cc3)C(=O)O[B-]2(c2ccccc2)Oc2cc(N(CC)CC)ccc21 (stereo not shown)	toluene			0.44
Nc1cccc2ccc(/C=C/C(=O)c3ccc(C(F)(F)F)cc3)cc12	toluene		baseline: coumarin 153 in ethanol	38.2 ± 1.9%
CCN(CC)c1ccc2c(c1)O[B-]1(c3c(C)cccc3C)OC(=O)C(c3ccccc3)=N[N+]1=C2 (stereo not shown)	toluene			0.12
CN1CCN(c2ccc3[nH]c(-c4ccc5[nH]c(-c6ccc(OCCCCNC(=O)c7cccc8c7C(=O)OC87c8ccc(N(C)C)cc8C(C)(C)c8cc(N(C)C)ccc87)cc6)nc5c4)nc3c2)CC1	PBS with 0.1% SDS			0.67 ± 0.03

For quick reference, copied from above:
Compound	test system	conditions	scale	fluorescence quantum yield
CCCCN1C(=O)c2cccc3c(NCCCCCCCCCCN4CCOCC4)ccc(c23)C1=O	methanol			0.75
CN1CCN(c2ccc3[nH]c(-c4ccc5[nH]c(-c6ccc(OCCCCNC(=O)c7cccc8c7C(=O)OC87c8ccc(N(C)C)cc8C(C)(C)c8cc(N(C)C)ccc87)cc6)nc5c4)nc3c2)CC1	PBS with 0.1% SDS			0.67 ± 0.03
